# Measured values collected from several papers.
# A part holds a random share of what one study measured.

# Block 1
# Target: RNA binding protein fox-1 homolog 2, RRM domain, GST-SBP tag (RBFOX2, Homo sapiens, UniProt O43251-10, residues 100-194)
# Technique: RNA Bind-n-Seq
# Molecule type: RNA
# Sample: in vitro
# Concentration: 365 nM
# Setting: natural RNA segment, single round, ends assumed
# Reference: no-protein control
# Direction: higher = stronger binding
# All sequences stand within: GGGAGUUCUACAGUCCGACGAUC … UGGAAUUCUCGGGUGCCAA
# Residues (chain): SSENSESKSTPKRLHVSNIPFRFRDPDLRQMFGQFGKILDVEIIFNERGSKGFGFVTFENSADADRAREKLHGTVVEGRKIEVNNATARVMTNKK
Strand,RBNS enrichment (R)
CAUGGUCUUCGAUGUGGUUUUCAUUUACUGGUCAGGGGGCACCUCCCUGUAUUAGAAAUCUUGGAGGAAAGUCCCCAACUCCGUUCUGUCCCUUUCUUGUUCUUAGACAC,0.306
AAACAAAAAACCCUUCAAUAGCAUCCUUGAGGAAAAGGAACAGCAGUUGACUGUAAGUGCUUCCCUGUCAUCCAUGUGCAAUUUCCCGACAUUCCACCUCCAUCUCUGCU,15.5
CCUUCCUGGUGGUAUCAGCUUCCAGCUGUUUCAACCCUUCCCAGCCCGUUGCUGGCGAUGGGCCCAUGCCCCCUCUCCAGGCUCUCUAGAGGCAGGCAGGUCCUUGGAAU,0.189
CCCUUGGGUCCUAGUGUUAUGUUCCAGUCUGCCCACCUGUGCUCAGGAUGCAGCCCUGGGAUCCAGCACCCAUGGAAGCUUCUGCUGGGAUGGUGUCACCUAUGGGUUUU,0.3
UUUUUUCAUUUAUCUGUGGAAACAACAGAGGUCUCUCUCUAAACCUGUUUUGUGUCAGUUUGGUGUGAGGUGACAUGGAAAAAUGUUGAUGAUUGUAGAUUAAGCUGAAA,0.68
ACCAACACGAGGUGUUUGGUCUGCUUCCAUUCUCUUCUGUGUAGUGCCUGGUUUAUUUAACUAAUUAAUACCUCCUCUGUUGAUGAGCUAUUGAGAGUUGCAGUGUUUUA,0.365
CCACACACAGAUCACUCCUCCCAGGGCUGCUGGCACACACUGAUUGUGGGGAGUUCAAGAGGCCUUUUCCCCUUGAGGGUGUGGCUGUCCCCCUUUCAGGCGUGUGGCGU,0.392
GCCUCGACAUUUCAAGUUGCGGUGUGUGACGGAGGUGGCUGCCGAACGAGAAGAGAUGCCACAGUGUAUCGUGUCUCUAGUUGUAUUGUAUACCUGCUUAACAUCUGCGA,0.257
UACCAACAAUUUUUUUAGAUUGAAAAUAUAUUAAAUAAGAAUCCAUCUAGUCUAUUUGUGUUAAAACAUGCUUUCAGAUGGAAGACGAACAUUCAUCUUAUAAAUGAACA,0.614
GGAAAACAAUUUUUUCAGAGAAUGUAUUUUUGUGCAGAAUUGCACAGAAUUCUAGAGACAGCGUUGUUCGGCAUCAAGGCAAAAGCCCACCUUUGCUUUUUAUGGAAAGC,1.66
CCUGGAAGCAGCCCCAUUACCCUGAGAAUGCGGAGCGCCCUGGCCCACCUCGCCCUGUGUUUCCAGGCCUGCACGUCUGGUCCUUCAGCUGCACAUGGAACUGCAGGGCA,0.58
AAUGGCCCAGCAUUAGCCCAGUAUUGGAAAAGACACCAGCCCAGGGGCCCUGACUCGUCACACUUCCCUUUCCUAAGCCUCUGAGGGUGGAGAUUCCCCUAGGAGCGCUU,1.19

# Block 2
# Target: Prothrombin, mature alpha-thrombin (F2, Homo sapiens, UniProt P00734)
# Technique: aptamer microarray, sandwich
# Molecule type: DNA with 2'F-ANA
# Sample: in vitro
# Concentration: 200 nM
# Setting: whole 15-mer aptamer, many near background
# Together with: Cy3 exosite-II aptamer, 400 nM
# Direction: higher = stronger binding
# Strand: GGTTGGTGTGGTTGG
Modification,mean fluorescence intensity
2'F-ANA at 4 6 12 13,371 a.u.
2'F-ANA at 3 4 6 8 15,642 a.u.
2'F-ANA at 1 3 4 5 13 14 15,184 a.u.
2'F-ANA at 1 2 3 4 5 7 10 12 13 14,45.3 a.u.
2'F-ANA at 1 4 5 8 9 15,64.3 a.u.
2'F-ANA at 1 2 3 7 8 9 11 15,251 a.u.
2'F-ANA at 1 6 9 10 12 14 15,51.2 a.u.
2'F-ANA at 4 6 8 9 13 14,161 a.u.
2'F-ANA at 2 4 5 6 8 11 13 14,44.8 a.u.
2'F-ANA at 1 4 5 7 8 12 13 15,104 a.u.
2'F-ANA at 2 3 7 9 14 15,395 a.u.
2'F-ANA at 1 2 4 5 6 8 9 10 11 12 13 14,50.8 a.u.
2'F-ANA at 4 5 8 9 10 14,46.1 a.u.
2'F-ANA at 2 4 5 6 10 11 13 15,46.6 a.u.
2'F-ANA at 2 3 4 6 7 8 9 10 11 13,202 a.u.
2'F-ANA at 1 2 3 6 12 13 14 15,80.3 a.u.
2'F-ANA at 5 10 11 13 15,51.7 a.u.
2'F-ANA at 2 4 5 6 7 9 11 13,83.8 a.u.
2'F-ANA at 2 3 4 5 6 7 8 9 10 12 13 15,51.4 a.u.

# Block 3
# Target: Histone acetyltransferase KAT6A, both winged helices, GST fusion (KAT6A, Homo sapiens, UniProt Q92794, residues 1-181)
# Technique: protein binding microarray
# Molecule type: double-stranded DNA, one strand shown
# Sample: in vitro
# Concentration: not given
# Setting: 8-mer, flanks averaged, mean of 2 arrays, mostly near background
# Reference: not given
# Direction: higher = stronger binding
# Residues (chain): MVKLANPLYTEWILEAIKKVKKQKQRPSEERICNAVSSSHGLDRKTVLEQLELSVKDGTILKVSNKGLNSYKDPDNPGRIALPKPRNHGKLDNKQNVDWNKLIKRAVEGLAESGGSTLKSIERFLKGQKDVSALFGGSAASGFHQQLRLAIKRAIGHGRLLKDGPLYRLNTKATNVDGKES
Strand,E-score
TCGTTTAA,-0.1
AATAAATT,-0.0718
ATTCCGGA,0.173
AGCAGCTC,-0.21
GCTTGGTA,-0.0826
CAATGACA,-0.152
AAACCTAC,-0.222
AAGCGATA,0.0919
AGTGTCGA,-0.0297
CTCGCAAC,-0.0067
ATATGGAT,-0.16
CCTATCAC,-0.0377
CCGCGTAC,0.265
ACCCGTCT,0.158
AGAATGCA,-0.0563
CAGATACG,0.0433
CTACGGGC,0.209
CGGCCCGA,0.209

# Block 4
# Target: Centromere-binding protein 1, full length, N-terminal tag (CBF1, Saccharomyces cerevisiae, UniProt P17106, residues 1-351)
# UniProt P17106, sequence (whole entry, looked up): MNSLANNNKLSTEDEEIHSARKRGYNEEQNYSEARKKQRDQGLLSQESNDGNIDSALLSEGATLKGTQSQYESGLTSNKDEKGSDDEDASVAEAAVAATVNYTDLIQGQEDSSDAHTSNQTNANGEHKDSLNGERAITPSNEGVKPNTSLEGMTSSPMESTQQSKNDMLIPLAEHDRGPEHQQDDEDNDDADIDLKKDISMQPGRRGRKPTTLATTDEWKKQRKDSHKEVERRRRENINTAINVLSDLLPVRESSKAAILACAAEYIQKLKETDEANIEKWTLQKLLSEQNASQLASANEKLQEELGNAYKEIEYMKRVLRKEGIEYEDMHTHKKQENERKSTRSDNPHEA
# Technique: protein-binding microarray
# Molecule type: double-stranded DNA, one strand shown
# Sample: in vitro
# Concentration: 0.8 µM
# Setting: whole 60-bp probe, no competitor
# Direction: higher = stronger binding
# All sequences stand within: … GTCTTGATTCGCTTGACGCTGCTG
Strand,fluorescence intensity
GAATTGTTTTTATCAGTTGAGATTGAAGTATTTTAG,553 a.u.
GAATGACATATTAAACACGTACCTCGTGATGCGTAG,2840 a.u.
CTAAAAGGGAAAAGCCACATGCGGAAGAATTTTTTC,573 a.u.
CTATCTGACACGCACGTGATGACCACGTAATCGTTC,9070 a.u.
CTACGCCCGAGGTCACCCGCCACGGAGAGGGGCTTC,541 a.u.
GAATTGGTCATATTAAACATGACAGTTTAATAATAG,588 a.u.
GAACTCCACGGTGAGAACGTGATGTGATAGCCGTAG,1980 a.u.
CTACATGTATTGTTTCACATGAAATTTCGGCCATTC,556 a.u.
GAAATGCTAGTACAACACGTTTGGTTGAAAATTTAG,506 a.u.
GAATTAACGCTATAACGTGTAGTATGTACAGGCTAG,559 a.u.
GAACAAGAGAAATTTCATGACACTTTTTTAAACTAG,525 a.u.
CTATATCGAGTCTCCCACGAGGTTGACAAATAATTC,613 a.u.
GAATGCTATGTTCGTCACGGTACAAACTTTGCGTAG,865 a.u.
CTATACCATCCCGATGGTGATGGTTGTGAATGCTTC,482 a.u.
GAAATACAGAGGCTTCATGTGACCGGAGAAAGGTAG,2000 a.u.
CTAGACATGAGCCCACTGATGACCATTGCTGCCTTC,519 a.u.
CTAGTACGACAATGGTACATCAGGTTTAGTCTTTTC,508 a.u.

# Block 5
# Target: RING finger protein unkempt homolog, zinc fingers 1-6, SBP tag (UNK, Homo sapiens, UniProt Q9C0B0, residues 30-357)
# UniProt Q9C0B0, sequence (30-357, looked up): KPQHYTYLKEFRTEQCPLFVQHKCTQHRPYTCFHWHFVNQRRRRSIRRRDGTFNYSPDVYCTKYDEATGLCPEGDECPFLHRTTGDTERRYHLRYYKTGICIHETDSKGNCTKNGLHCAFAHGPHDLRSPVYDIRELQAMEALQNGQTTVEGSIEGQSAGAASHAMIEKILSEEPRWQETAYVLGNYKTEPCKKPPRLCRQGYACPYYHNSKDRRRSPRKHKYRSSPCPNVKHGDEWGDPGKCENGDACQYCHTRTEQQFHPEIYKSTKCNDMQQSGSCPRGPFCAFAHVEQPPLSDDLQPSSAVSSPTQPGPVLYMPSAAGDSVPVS
# Technique: RNA Bind-n-Seq
# Molecule type: RNA
# Sample: in vitro
# Concentration: 100 nM
# Setting: RNA with constant flanks, vertebrate orthologous sites, ends assumed
# Reference: input RNA pool
# Direction: higher = stronger binding
# All sequences stand within: GGGAGUUCUACAGUCCGACGAUC … CAACAGAGGAUUGAGCAUCA
Strand,bound/input enrichment [ratio]
GCAAUGAAAAAGCAGCCCUUCUCCCAGCCCCCUUUUCACUAGGAGAUACAAACAUUACCAUAGAAGAGCAAUUAAAUUCAAUAAAUUUAUCUUUUCAGGAUGAUCCAGACUCCAGUACCA,1.48
AACUACACUAAUACUGAAGUUACAGUUGAAAGGAUAUCCAAGGUGACGAUAAAGUGUGUGUUGGUAGUUACUAAAAGAACUUUAGCUGUUAUUGCCUUGUAUUUCUAUCCCUUGUUUCAC,0.323
UCUUAUUGAUCAGGUCUGUAAAUGUGUACUAAAAAAAUCAGAGUUUAUUUAUAAACAGAAUAGUUUAUUUAAAGAGAAGGUCUUUCCUCAUCAAUAUAAAAUUGUGGUAUGCAUUAAUUC,0.193
UCAUCUCUUUUUAUAUGUCCAAAAAUGGCUUUGAAUUUGUAAACAGUUGCUAGUGUCACUUAGCCCUACCCUGAUGAAGUAUUAUUGCUGUUGAUCACUAACAGACACCUGUCUGUUACU,0.526
AUUGAAAACUGAACCAUGUCUACCUAGAAAGUAACACUCUACAAAUAUCACUAAAUAAUUUAGCUAUAAUCUUUUUAAACAUUACAUUAUAUGUCAAAUAGUCAAAGUUAAAAGUAAGUA,1.17
CCGAAAGGCCAAAUUCCCUCCUCCCUUCUACUGCUUCUACCAACUGGAAGCACAGAAAACUAGAAUUUCAUUUAUUUUGUUUUUUAAAAAUAUAUGUUGAUUUCUUGUAACAUCCAAUAG,0.479
UUCUCAACUUGUUCUAGCUGGUGAUCCUUCAAAGUUGGGUCAGGCAGUAGUGCUAGGUACUAGAAAUUUUCAUUUCCCUAUUGCCAUUGAUCAGAGAAGACAGAUAUUAAAAAUAGAAAU,0.524
UGUUUUGUUUUGCCUAAGAGUUCGUAUUAAAGAUUGUCAAAGGAAGGAAGAGGGGAUACACUAGCAAUGGUCCCAGGUGCCUGGCCUCCAGCGCCCCAUUUGGGACAAUCCUGUCAGGGU,0.442
GUCCCUCAGUGAUAGCAUGCCAUCUGUAGCAGACUCCCACUCAAGUCAUUUCUCUGAAUUUAGUUGUUCCGAUAUGGAAAGCAUGAAAACUUCUUGUAGCCAUGGUUCCAGUGAUUAUCA,0.621
CUGCUCUACGGGCCCCGCAGAGUGGAGAUCAUGGAAGAGGAAAGUGAACAGUAAUCUCCGUAGUAUUUAUGCUUAGGUGUGGAAUGAAUGUUACUUGUUGAUCACUUGUAUAAUCCAGAG,0.51
UAUUGUAUGUAGAGAAAAUUUUCCAUUGACUUCAUUAUGAAAUCCCCCUAGCAGUUAAUUUAGCAUCUUAAUUUUUCUAAUUAAAGCGCAUUGUAUUAGUCAUUUUUAGCUCAUAAUUAA,2.15
